{"data": "Experimental data pooled from the literature", "cell line": "A-375", "note": "Each line is one published result; not all experiments were run side by side. ± gives the spread as reported."}
{"Structure (SMILES)": "CCCC(CCC)C(=O)[O][Pt]([Cl])([Cl])[O]C(=O)C(CCC)CCC.N.N", "observed": "cytotoxicity", "time": "72 h", "IC50 [µM]": "1.25 ± 0.25"}
{"Structure (SMILES)": "CC(=O)O[C@H]1CC[C@]2(C)[C@H]3CC=C4[C@@H]5[C@@H](C)[C@H](C)CC[C@]5(C(=O)O)CC[C@@]4(C)[C@]3(C)CC[C@H]2C1(C)C", "observed": "cell growth or viability", "method": "MTT", "time": "24 h", "IC50 [µM]": 50.9}
{"Structure (SMILES)": "CO[C@H]1C(=O)c2ccc(O)cc2O[C@@H]1c1ccc(O)c(O)c1 (relative stereo)", "observed": "cell growth or viability", "method": "MTT", "time": "72 h", "IC50 [µM]": 338}
{"Structure (SMILES)": "CC(C)c1cccc(C(C)C)c1-n1c(Cl)c(Cl)n(-c2c(C(C)C)cccc2C(C)C)c1=[Se].[Cl][Ag]", "observed": "cell growth or viability", "method": "MTT", "time": "72 h", "IC50 [µM]": 0.8}
{"Structure (SMILES)": "N=C(N)NCCC[C@H](NC(=O)[C@H](CC(=O)O)NC(=O)[C@@H]1CSCCCC(=O)NCC(=O)N[C@@H](Cc2c[nH]cn2)C(=O)N[C@H](Cc2ccccc2)C(=O)N[C@@H](CCCNC(=N)N)C(=O)N[C@H](Cc2c[nH]c3ccccc23)C(=O)N1)C(=O)N[C@@H](Cc1ccccc1)C(=O)NCC(N)=O", "observed": "binding", "IC50 [µM]": "0.092 ± 0.065"}
{"Structure (SMILES)": "Cc1c(C)n(-c2c(C(C)C)cccc2C(C)C)c(=[Se])n1-c1c(C(C)C)cccc1C(C)C.[Cl][Au]", "observed": "cell growth or viability", "method": "MTT", "time": "72 h", "IC50 [µM]": 1}
{"Structure (SMILES)": "O=C1c2ccc(O)cc2OC1(O)Cc1ccc(O)c(O)c1 (stereo not drawn)", "observed": "cell growth or viability", "method": "MTT", "time": "72 h", "IC50 [µM]": "> 400"}
{"Structure (SMILES)": "CC(=O)[O][Pt]1([O]C(C)=O)[O]C(=O)C(=O)[O]1.NC1CCCCC1N", "observed": "cytotoxicity", "time": "72 h", "IC50 [µM]": "19.6 ± 2.84"}
{"Structure (SMILES)": "CC(C)c1cccc(C(C)C)c1-n1ccn(-c2c(C(C)C)cccc2C(C)C)c1=[Se].[Cl][Ag]", "observed": "cell growth or viability", "method": "MTT", "time": "72 h", "IC50 [µM]": 0.5}
{"Structure (SMILES)": "CC(=O)[O][Pt]([Cl])([Cl])[O]C(=O)CCCc1ccccc1.N.N", "observed": "cytotoxicity", "time": "72 h", "IC50 [µM]": "6.25 ± 1.94"}
{"Structure (SMILES)": "CC(C)c1cccc(C(C)C)c1N1CCN(c2c(C(C)C)cccc2C(C)C)C1=[Se].[Cl][Au]", "observed": "cell growth or viability", "method": "MTT", "time": "72 h", "IC50 [µM]": 1.4}
{"Structure (SMILES)": "CCCC(CCC)C(=O)[O][Pt]1([OH])[O]C(=O)C(=O)[O]1.NC1CCCCC1N", "observed": "cytotoxicity", "time": "72 h", "IC50 [µM]": "47.3 ± 2.53"}
{"Structure (SMILES)": "[Cl][Au].[Se]=c1n(C23CC4CC(CC(C4)C2)C3)ccn1C12CC3CC(CC(C3)C1)C2", "observed": "cell growth or viability", "method": "MTT", "time": "72 h", "IC50 [µM]": 0.6}
{"Structure (SMILES)": "CCCC(CCC)C(=O)[O][Pt]([Cl])([Cl])[O]C(C)=O.N.N", "observed": "cytotoxicity", "time": "72 h", "IC50 [µM]": "2.17 ± 0.53"}
{"Structure (SMILES)": "COc1cccc(-c2ccc(Nc3ccc(CN(C)C)cc3)c(OC)c2F)c1", "method": "HTRF", "refers to": "phospho-Akt", "IC50 [µM]": "> 1000"}
{"note": "For quick reference, copied from above:"}
{"Structure (SMILES)": "COc1cccc(-c2ccc(Nc3ccc(CN(C)C)cc3)c(OC)c2F)c1", "method": "HTRF", "refers to": "phospho-Akt", "IC50 [µM]": "> 1000"}
